Results of several laboratories.
Numbered parts are unrelated; each lists some results of a single study. Positions count from the first letter of the parent shown.

Block 1
Target: CCNA2, cyclin fold, Cln2 fusion (human)
Technique: yeast growth competition, sequencing
Matrix: yeast
Setting: strong parent motif
Relative to: not given
Direction: higher = stronger binding
Starting sequence: WEE1 docking peptide (human); HKTFRKLRLFDTP
Substitution | normalised enrichment score
R8C | 2.11
D11M | 1.52
T3S | -0.458
K6F | -0.378
R8F | 1.44
D11A | 1.3
H1Q | 0.77
R5K | 1.4
R5A L7A | 1.75
T3W | 1.2
R8D | 1.48
T12G | 2.07
H1E | 1.6

Block 2
Target: RNA binding protein fox-1 homolog 2, RRM domain, GST-SBP tag (RBFOX2, Homo sapiens, UniProt O43251-10, residues 100-194)
Technique: RNA Bind-n-Seq
Molecule type: RNA
Matrix: in vitro
Concentration: 365 nM
Setting: natural RNA segment, single round, ends assumed
Relative to: no-protein control
Direction: higher = stronger binding
Construct (chain): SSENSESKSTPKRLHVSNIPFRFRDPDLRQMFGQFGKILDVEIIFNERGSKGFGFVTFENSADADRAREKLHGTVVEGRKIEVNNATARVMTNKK
Strand | RBNS enrichment (R)
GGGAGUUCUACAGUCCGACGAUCUUGAUUUGUUGGUUCAUGCCAAGUGUGUUCCACAGGUUGACUUUGAAUGUGGACCUCUGAGCAUCCACGCAGGAUGGCUCUCAGGUCCCAGUCACAGACGUCGCUUCCUGUGGAAUUCUCGGGUGCCAA | 0.319
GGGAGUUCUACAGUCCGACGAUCGUGACCACAUACGUGUUAGGAGGCUGCAUGCUCUGGAAGCCUGGACUCUAAGCUGGAGCUCUUGGAAGAGCUCUUCGGUUUCUGAGCAUAAUGCUCCCAUCUCCUGAUUUUGGAAUUCUCGGGUGCCAA | 2.96
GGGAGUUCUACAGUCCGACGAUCCUCAGCUGGAUGAGAGGCUGAGAUGGGUGGCCAGCUUGUACACCAGUCCCUGAACUGAGCUGUUUACAGGACUGGGGAGGCUCCACCCAGAAGGCUUUCAUUUGUACUCUUGGAAUUCUCGGGUGCCAA | 0.615
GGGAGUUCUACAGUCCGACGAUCAGCACAACAGGGAUGGUCGUCGGCAUUGUGGCUGCUGCCGCCCUCUGCAUCUUGAUCCUCCUGUACGCCAUGUACAAGUACAGGAACAGGGACGAGGGGUCCUAUCAAGUUGGAAUUCUCGGGUGCCAA | 0.338
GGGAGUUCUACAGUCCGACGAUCUAUUUCUUUCAUUCAUAUCCCUGCUGAAAUAUUGGUACUAGCAACUUAAAGUUGGCAAGUCUCAUCUUCAGUAAUACGGAUGCCAUGGGAGUGGCCAGGCCAGAUUGAAGUGGAAUUCUCGGGUGCCAA | 0.314
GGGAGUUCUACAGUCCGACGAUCAUUACAGAAAGACACGGCACUGCCGUGCACACCCAUGCUGCUUAGAAGCCUAAGCCUCUGCCUUCAAGCUGGAUCCUGUGCAGGGUGGGCAGGCAAGAACUCAGACAUGCUGGAAUUCUCGGGUGCCAA | 0.328
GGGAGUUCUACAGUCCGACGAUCUCUGAGGAAGGCCGUAAAAUGGGGACAGGAGGAUUCAGCUCAGGAGUAAGGGAAGAGGUCCUCUGGCCCCCUGAAGAUGAGAAUCACCCCUCUCAGUGCACCUGGGGAUCUGGAAUUCUCGGGUGCCAA | 0.334
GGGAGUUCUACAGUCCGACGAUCGCAGACGUCAGCUCAGCCCCGUCCUGGGCACAGACACUACACAAGGAGACGCUGGAAGUUAAGCAAUACUUUAAUACUGUAAUAUGUUUGUUUUCUUUUUCUUUCUUUUUUGGAAUUCUCGGGUGCCAA | 0.362
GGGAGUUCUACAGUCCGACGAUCCCCUCUAUCAAGUGAGGAGAUUAAGGCUUAAAGAAAGGAAAGGACUUGCCAGCCACCACAGGGCUCAUGAGGGGCUUGAACCCAUGUCGUGUGUCUCUACCACAGCUGACUGGAAUUCUCGGGUGCCAA | 0.377

Block 3
Target: RING finger protein unkempt homolog, zinc fingers 1-6, GST-SBP tag (UNK, Homo sapiens, UniProt Q9C0B0, residues 30-357)
Chain of UniProt Q9C0B0 (30-357, looked up): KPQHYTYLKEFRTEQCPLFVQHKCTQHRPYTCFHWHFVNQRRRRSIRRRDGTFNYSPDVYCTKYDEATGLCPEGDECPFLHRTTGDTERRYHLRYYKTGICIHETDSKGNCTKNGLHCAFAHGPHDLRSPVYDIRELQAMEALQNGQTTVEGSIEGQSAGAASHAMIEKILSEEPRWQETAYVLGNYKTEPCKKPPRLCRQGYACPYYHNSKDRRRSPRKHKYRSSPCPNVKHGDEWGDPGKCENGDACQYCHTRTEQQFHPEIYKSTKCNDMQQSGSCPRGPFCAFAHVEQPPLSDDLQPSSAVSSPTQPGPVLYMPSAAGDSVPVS
Technique: RNA Bind-n-Seq
Molecule type: RNA
Matrix: in vitro
Concentration: not given
Setting: RNA with constant flanks, human and mouse sites, ends assumed
Relative to: input RNA pool
Direction: higher = stronger binding
Strand | bound/input enrichment [ratio]
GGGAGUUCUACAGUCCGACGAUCAGGAGGAGGUUUGCUUCCCGGAUCAUAGAUAGUCUGUUUAAUACAGUAACUGAUAAGAAGAUAGCUAUUUUGGGAUUUGCAUUCAAAAAGGACACUGGUGAUACAAGAGAAUCUUCUAGUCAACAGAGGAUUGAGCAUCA | 3.88
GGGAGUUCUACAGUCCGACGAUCCAGUGGGGGAACUCUGCCGGUAACCAGCUCCCCUUCUUGCAGGAGGGAGGGAGAAACAUACAUUUAUUCAUGCCGGUCUGUUGCAUGCAAGCUUCUUGGCUUCCUACCUUGCAACAAAAUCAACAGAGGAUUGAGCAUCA | 0.132
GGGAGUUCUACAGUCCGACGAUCUCACCCCAGAGCAUUUUAGAUGAUGUUGCCAUGGUACUUGAUGAAGAAGCAGAAGUUUUUAUAGUCAAAAUGUGGAGAUUAUUGAUAUAUGAAACAGAAGCCAAGAAAAUUGGUCUUGUGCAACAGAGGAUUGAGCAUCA | 0.314
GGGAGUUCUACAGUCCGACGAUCGUGAGGCUUUCAGUCAGCUCUAAGGGAAGCGUCAGCACUCCCAACUCCCCCGUGAAGAUGACCCUGAUCCCCAGCCCAAACUCACCCUUCCAGAAAGUGGGGAAACUGGCAAGCUCAGACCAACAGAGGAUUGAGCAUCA | 0.283
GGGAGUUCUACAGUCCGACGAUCUAUUUAAUAUCACCUCUAGAUUUUGUACCUGAAGCCUUGUUUGGAAUUCUGGGCUUUCUAGAUGAUUUCUUUGUUAUCUUUUUGUUGCUUAUUUACAUCUCCAUUAUGUAUCGAGAAGUGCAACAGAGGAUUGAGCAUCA | 0.739

Block 4
Target: Max dimerization protein 1, bHLH-zipper, MAX partner unstated (MXD1, Homo sapiens, UniProt Q05195, residues 56-136)
Technique: protein-binding microarray
Molecule type: double-stranded DNA, one strand shown
Matrix: in vitro
Concentration: not given
Setting: k-mer, scored over probes, only values ≥0.25
Direction: higher = stronger binding
Construct (chain): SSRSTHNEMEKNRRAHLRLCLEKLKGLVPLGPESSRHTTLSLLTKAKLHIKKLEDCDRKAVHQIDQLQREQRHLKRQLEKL
Strand | E-score
AAATGTGC | 0.336
CACCATGG | 0.276
CGTGCAAA | 0.262
AGCATGTG | 0.436
ACCCACGG | 0.271
ACGTGCCG | 0.329
GCAATGCC | 0.258
GCGTGGCC | 0.374
AAATCACG | 0.301
ACGCATGC | 0.418
ACGTGTTC | 0.411
CGTGGTAA | 0.362
ACGGCGGG | 0.251
CGCCCCTC | 0.283
CTACATGC | 0.265
ACCCCCCA | 0.284
AACCTCAT | 0.273
ACACGCTG | 0.362

Block 5
Target: Fragile X messenger ribonucleoprotein 1, C-terminal low-complexity region (Fmr1, Mus musculus, UniProt P35922)
Technique: RNA Bind-n-Seq
Molecule type: RNA
Matrix: in vitro
Concentration: 200 nM
Setting: whole 134-nt RNA, ends assumed
Added: 150 mM KCl
Relative to: input library
Direction: higher = stronger binding
Strand | log2 enrichment
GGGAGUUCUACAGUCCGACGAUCUAACUUUAGAGGAGGAUCUGAUGGAUAUGGCAGUGGACGUGGAUUUGGGGAUAGCUAUAAUGGGUAUGGAGGAGGACCUGGAGGUGGCAAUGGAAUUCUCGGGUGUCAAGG | 0.419
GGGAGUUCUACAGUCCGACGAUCACCAUGCAGGUGGGCAUCUUUGGGAAGUGGGGCAAGGGGGGGAUAGGGAGGGGGGUAACACUUUGGCAACAGGUGGUCCCAGGUCGUUUCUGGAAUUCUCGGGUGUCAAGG | 0.617
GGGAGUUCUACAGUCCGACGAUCCACAGACAACACGCACCCACACAGAAAAAGAGGGAAGGGGUUGGGAUGGGGACAGGGUGCACAGCAGGGCGGGGUAGGACCCCAGCCCCUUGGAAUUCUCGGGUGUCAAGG | 1.26
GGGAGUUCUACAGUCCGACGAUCCUGUGCUACACAUCGUAUGUACCGAAUCGGGAAAAAAAGGGAAAAAAAGGGUUUUUUUGGGAAAGUAUUAUGUUACGCCGUUCGGAUCUGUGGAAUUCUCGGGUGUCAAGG | -1.3
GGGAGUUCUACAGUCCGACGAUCUCCUGUGCUACACAUCGUAUGUACCGAAUCGGGGUUUUUGGGGUGGGGAAAAAAAGGGGAAAGUAUUAUGUUACGCCGUUCGGAUCUGCAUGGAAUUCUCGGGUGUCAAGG | 0.736
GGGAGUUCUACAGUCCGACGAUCGUCCUGUGCUACACAUCGUAUGUACCGAAUCGGGCCCCCGGGGCCCCCGGCCCCCGGGGAAAGUAUUAUGUUACGCCGUUCGGAUCUGCAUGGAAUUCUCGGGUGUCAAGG | -0.92

Block 6
Target: Interferon regulatory factor 5, full length, phosphomimetic (IRF5, Homo sapiens, UniProt Q13568-2, residues 1-514, S451D/S453D/S456D/S462D)
Technique: protein-binding microarray
Molecule type: double-stranded DNA, one strand shown
Matrix: in vitro
Concentration: 940 nM top
Setting: 60-bp whole probe
Added: salmon DNA 0.4 mg/ml
Relative to: random background probes
Direction: higher = stronger binding
All sequences stand within: GCCTAGCAC … GTCTTGATTCGCTTGACGCTGCTG
Strand | fitted relative affinity [z-score]
TTAGGTCTCCTTATCCTTTCGTGCTAG | 0.497
AGGGTCCCGCGATTCGACACGTGCTAG | -0.405
TTAGGAATGGGTCTCGGTTAGTGCTAG | 1.64
ACTAGTGTTTTTCTCCTATTGTGCTAG | 0.899
TTAGGTATCGCTCTCGGTTAGTGCTAG | 6.17
GACGGACGGGGTATCGGGACGTGCTAG | 0.746
TCATTTCTAAAACTCTTACTGTGCTAG | 0.963
GACGACCTCAGTTTCGAGACGTGCTAG | 3.79
GACGGTTTCGACTGTCGGGACGTGCTA | 8.38
GACGATATTAGACTGGAGACGTGCTAG | -0.19
CTTTAACTCATTCTCTGCTTGTGCTAG | 1.5
GATGGTATCCTTATCCTGACGTGCTAG | 0.586
TTAGGTCTCGGTTTCGGTCAGTGCTAG | 10.1
TCATATCTAAGATTCTAACTGTGCTAG | 0.269
TTAGGACTGGGTATCGGTTCGTGCTAG | 2.77
GACGGACTGGGTTTCGGGATGTGCTAG | 2.59

For quick reference, copied from above (block 3):
Strand | bound/input enrichment [ratio]
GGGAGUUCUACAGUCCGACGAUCUCACCCCAGAGCAUUUUAGAUGAUGUUGCCAUGGUACUUGAUGAAGAAGCAGAAGUUUUUAUAGUCAAAAUGUGGAGAUUAUUGAUAUAUGAAACAGAAGCCAAGAAAAUUGGUCUUGUGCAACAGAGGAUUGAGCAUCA | 0.314
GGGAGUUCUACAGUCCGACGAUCGUGAGGCUUUCAGUCAGCUCUAAGGGAAGCGUCAGCACUCCCAACUCCCCCGUGAAGAUGACCCUGAUCCCCAGCCCAAACUCACCCUUCCAGAAAGUGGGGAAACUGGCAAGCUCAGACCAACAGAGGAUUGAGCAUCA | 0.283
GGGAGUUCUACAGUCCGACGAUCCAGUGGGGGAACUCUGCCGGUAACCAGCUCCCCUUCUUGCAGGAGGGAGGGAGAAACAUACAUUUAUUCAUGCCGGUCUGUUGCAUGCAAGCUUCUUGGCUUCCUACCUUGCAACAAAAUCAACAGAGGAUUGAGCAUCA | 0.132
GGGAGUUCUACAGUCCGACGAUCUAUUUAAUAUCACCUCUAGAUUUUGUACCUGAAGCCUUGUUUGGAAUUCUGGGCUUUCUAGAUGAUUUCUUUGUUAUCUUUUUGUUGCUUAUUUACAUCUCCAUUAUGUAUCGAGAAGUGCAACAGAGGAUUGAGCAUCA | 0.739
